Assay results collected from several papers.
Compare with care: the assays were run in different laboratories. ± gives the spread as reported.
B1: aspC A106G/A17N/A218G/A278L/A281T/A8Q/D18E/F210I/F212I/F350Y/G15S/G249S/I187A/I279A/I29V/I33V/I341V/I5L/I68L/I71L/L46M/M321L/M380L/N285S/N30D/N64T/S129T/S135A/S273G/S351L/T100S/V125I/V136I/V375I/Y244C (Escherichia coli, UniProt P00509); chain MFENLTAQPADPILSLNELFRADERPGKVDLGVGVYKDETGKTPVMTSVKKAEQYLLENETTKTYLGLDGLPEFGRCTQELLFGKGSALINDKRARTAQSPGGTGGLRVAADFLAKNTSVKRVWISNPTWPNHKAIFNSAGLEVREYAYYDAENHTLDFDALINSLNEAQAGDVVLFHGCCHNPTGADPTLEQWQTLAQLSVEKGWLPLIDIAYQGFGRGLEEDAEGLRAFAAMHKELIVASSCSKNFSLYNERVGACTLVAADSETVDRAFGQMKALARTNYSSPPAHGASVVATILSNDALRAIWEQELTDMRQRIQRLRQLFVNTLQEKGANRDFSFVIKQNGMFSYLGLTKEQVLRLREEFGVYAVASGRINVAGLTPDNMAPLCEAIVAVL
B2: enzyme (Actinosynnema mirum, UniProt C6WFL3); chain MDSPAGYRIHDNIPLPGNLDQVDVHVTRDDDYRIHVLPDVDRAVDALLTELDGRRAVVITDDVVADLHEGRVSAELAARGQLIGRTAIRAGEKSKSLTTAFELIDWLAEVNLARRDVVIALGGGVVVDTVGFVASAYMRGVPYVNMPTTLLAQVDAGIGGKVAVDHSEAKNLVGAFYQPKAVISCLEHLRTLDTRQIRSGLAEVVKKAVIASPELFDYIEANADDLLACASPAIDVLVHAAGAIKTKLVGRDPYEIDLRRPLNFGHTTGHAVETVTNYGPVLHGEAVAFGMVVAVDVARARGLVVPEVADRVTALIRRLGLPVALEELGAVPRVDDVVAALLKIRQIRDGSLRFVLPVELGATVIAEDVTEEEVRAALVRLR
B3: SCO6712 V290N (Streptomyces coelicolor, UniProt Q9XAL8); chain AKGITARTAPAGGEVRHLKMYAEKLADGQMGYGFEKGKASVPGPLIEVNEGDTLHIEFTNTMDVRASLHVHGLDYEISSDGTAMNKSDVEPGGTRTYTWRTHKPGRRDDGTWRPGSAGYWHYHDHVVGTEHGTGGIRNGLYGPVIVRRKGDVLPDATHTIVFNDMTINNRKPHTGPDFEATVGDRVEIVMITHGEYYHTFHMHGHRWADNRTGILTGPDDPSRVIDNKITGPADSFGFQIIAGEGVGAGAWMYHCHNQSHSDMGMVGLFLVKKPDGTIPGYEPHEHGGATAKSGESGEPTGGAAAHEHEH
B4: UGT1A1 (Homo sapiens, UniProt P22309); chain HAGKILLIPVDGSHWLSMLGAIQQLQQRGHEIVVLAPDASLYIRDGAFYTLKTYPVPFQREDVKESFVSLGHNVFENDSFLQRVIKTYKKIKKDSAMLLSGCSHLLHNKELMASLAESSFDVMLTDPFLPCSPIVAQYLSLPTVFFLHALPCSLEFEATQCPNPFSYVPRPLSSHSDHMTFLQRVKNMLIAFSQNFLCDVVYSPYATLASEFLQREVTVQDLLSSASVWLFRSDFVKDYPRPIMPNMVFVGGINCLHQNPLSQEFEAYINASGEHGIVVFSLGSMVSEIPEKKAMAIADALGKIPQTVLWRYTGTRPSNLANNTILVKWLPQNDLLGHPMTRAFITHAGSHGVYESICNGVPMVMMPLFGDQMDNAKRMETKGAGVTLNVLEMTSEDLENALKAVINDKSYKENIMRLSSLHKDRPVEPLDLAVFWVEFVMRHKGAPHLRPAAHDLTWYQYHSLDVIGFLLAVVLTVAFITFKCCAYGYRKCLGKKGRVKKAHKSKTH
B5: enzyme K56A (Nitrosopumilus maritimus, UniProt A9A5X4); chain MDSQKFDSIIFDCDGVLVDITQSYDKTIDKTCRYVLKEFAKIDSITIDHKIIDGFASSGGFNDEVDLVYAAILSLYTANKLNKKPSEFIYDVISNTDKTGIRSVQSYLESIYDVSEFLSKLGSLGDRHNNPVYSIFDQFFFGPELYGKLFDKQSKFSEEGMISNDKVILSVSLLETLQKEFGKKIAVVTGRGIESIRYSLKDMMDYFDTKNSAFLEDEPRELAKPNPATLIRAIQSMESKNCLYVGDSMEDYMMAKDAAQAGHSTTFCAIVGTSTNPEDRRKLFADSGVEMILESINDIPKVLNLV
B6: bxlB (Aspergillus nidulans, UniProt Q5ATH9); chain NYPDCTTGPLSELPICDTSLSPLERAKSLVSALTLEEKINNTGHEAAGSSRLGLPAYNWWNEALHGVAEKHGVSFEESGDFSYATSFPAPIVLGAAFNDALIRRVAEIISTEARAFSNSDHAGIDYWTPNVNPFKDPRWGRGQETPGEDPLHCSRYVKEFVGGLQGDDPEKPKVVATCKHLAAYDLEEWGGVSRFEFDAKVSAVDLLEYYLPPFKTCAVDASVGAFMCSYNALNGVPACADRYLLQTVLREHWGWEGPGHWVTGDCGAVERIQTYHHYVESGPEAAAAALNAGVDLDCGTWLPSYLGEAERQGLISNETLDAALTRLYTSLVQLGYFDPAEGQPLRSLGWDDVATSEAEELAKTVAIQGTVLLKNIDWTLPLKANGTLALIGPFINFTTELQSNYAGPAKHIPTMIEAAERLGYNVLTAPGTEVNSTSTDGFDDALAIAAEADALIFFGGIDNTVEEESLDRTRIDWPGNQEELILELAELGRPLTVVQFGGGQVDDSALLASAGVGAIVWAGYPSQAGGAGVFDVLTGKAAPAGRLPITQYPKSYVDEVPMTDMNLQPGTDNPGRTYRWYEDAVLPFGFGLHYTTFNVSWAKKAFGPYDAATLARGKNPSSNIVDTFSLAVTNTGDVASDYVALVFASAPELGAQPAPIKTLVGYSRASLIKPGETRKVDVEVTVAPLTRATEDGRVVLYPGEYTLLVDVNDEYPTAKFEIKGDVQVLEKFPLSGNDSD
Chain of UniProt Q89VI2 (whole entry, looked up): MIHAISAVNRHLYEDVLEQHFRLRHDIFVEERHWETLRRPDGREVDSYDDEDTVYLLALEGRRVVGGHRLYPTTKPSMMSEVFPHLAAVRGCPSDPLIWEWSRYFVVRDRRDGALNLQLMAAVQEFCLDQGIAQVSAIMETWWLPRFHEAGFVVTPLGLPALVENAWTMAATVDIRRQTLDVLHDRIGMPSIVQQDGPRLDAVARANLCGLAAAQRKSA

Molecule	target or system	test	system	setting	scale	measurement	result
B1	N[C@@H](CC(=O)O)C(=O)O	steady-state kinetics		pH 7.5, 25 °C, added: PMP 20 µM		Km	1800 µM
B2 (enzyme)	O=C(CO)[C@@H](O)[C@H](O)[C@H](O)[C@H](O)COP(=O)(O)O	steady-state kinetics		pH 7.5, 28 °C		Km	37 µM
GACAGACAGACA (dsDNA)	Fibroin-modulator-binding protein-1 99-193 (Bombyx mori, UniProt Q5FBS0)	ITC	double-stranded DNA, one strand shown			Kd	5.42 ± 0.75 µM
CYP2J2 L2A (Homo sapiens)	CC/C=C\C/C=C\C/C=C\C/C=C\C/C=C\CCCC(=O)O	steady-state kinetics				Km	251 µM
B3 (SCO6712 V290N)	CCn1c(=NN=c2sc3cc(S(=O)(=O)O)ccc3n2CC)sc2cc(S(=O)(=O)O)ccc21	steady-state kinetics		pH 7, 37 °C, NaCl 150 mM, added: O2 cosubstrate		Km	790 µM
B4 (UGT1A1)	O=c1c(O)c(-c2ccc(O)c(O)c2)oc2cc(O)ccc12	steady-state kinetics		37 °C, not purified		Km	2.7 µM
bjaI (Bradyrhizobium diazoefficiens, UniProt Q89VI2)	CC(C)CC(=O)SCCNC(=O)CCNC(=O)[C@H](O)C(C)(C)COP(=O)(O)OP(=O)(O)OC[C@H]1O[C@@H](n2cnc3c(N)ncnc32)[C@H](O)[C@@H]1OP(=O)(O)O	steady-state kinetics		pH 7.3, added: 30 µM DCPIP, 331 µM SAM		Km	2.1 µM
B5 (enzyme K56A)	N[C@H](COP(=O)(O)O)Cc1c[nH]cn1	steady-state kinetics		pH 7.8, 25 °C		Km	607 µM
enzyme (Bacteroides ovatus, UniProt A0ABU3IP51)	O=[N+]([O-])c1ccc(O[C@H]2O[C@H](CO)[C@@H](O)[C@H](O)[C@H]2O)cc1	steady-state kinetics		pH 6.6		Km	88 µM
FGSLLDYV	HLA class I histocompatibility antigen, A alpha chain, allele A*01:01 (Homo sapiens, UniProt P04439)	conformational ELISA	peptide	concentration not given	baseline: positive control peptide, direction not given	binding score	0.1%
GSGAGKETYY	human MAGI1-2/6 PDZ construct (MBP fusion)	automated holdup	peptide, crude extract	concentration not given, uncorrected, unit not given	baseline: biotin control resin, higher = stronger binding	binding intensity	0.0715
B6 (bxlB)	O=[N+]([O-])c1ccc(O[C@@H]2OC[C@@H](O)[C@H](O)[C@H]2O)cc1	steady-state kinetics		pH 5, 50 °C		Km	970 µM
enzyme M50A (Homo sapiens, UniProt Q08623)	O=c1[nH]cc([C@@H]2O[C@H](COP(=O)(O)O)[C@@H](O)[C@H]2O)c(=O)[nH]1	steady-state kinetics		pH 7, 25 °C		Km	39 µM
GSGAGPETLV	human MAGI1-2/6 PDZ construct (MBP fusion)	automated holdup	peptide, purified PDZ protein	concentration not given, unit not given	baseline: biotin control resin, higher = stronger binding	binding intensity	0.134
CCT6A		co-immunoprecipitation	human plasma	unit not given, added: Band 3 peptide 1-56 bait	baseline: negative control	co-IP enrichment	0

A few entries again:
Molecule	target or system	test	system	setting	scale	measurement	result
FGSLLDYV	HLA class I histocompatibility antigen, A alpha chain, allele A*01:01 (Homo sapiens, UniProt P04439)	conformational ELISA	peptide	concentration not given	baseline: positive control peptide, direction not given	binding score	0.1%
